Assay results of several laboratories.
Every numbered part comes from another study and shows a few of its results, in no order. Changes are numbered by the printed parent chain.

Sample 1 — method: RNA Bind-n-Seq; molecule type: RNA; medium: in vitro; concentration: 20 nM; notes: 6-mer, flanks averaged, single round; added: 150 mM KCl; baseline: input library; reading: higher = stronger binding; measurement: 6-mer enrichment (R)
Target: TAR DNA-binding protein 43, full length, His tag (TARDBP, Homo sapiens, UniProt Q13148, residues 1-414)
CUGUUC: 0.587
GCAGUG: 1.63
GUCCUU: 0.661
AAUCUA: 0.566
UUUUUG: 0.807
CUUCUU: 0.586
CAGUCC: 0.623
UGAGUG: 1.8
UAACGA: 0.635
CCAGUA: 0.672
CACCAG: 0.749
GCAGGC: 1.6

Sample 2 — target: CCNB3, cyclin fold, Cln2 fusion (human); method: yeast growth competition, sequencing; medium: yeast; notes: weak parent motif; baseline: not given; reading: higher = stronger binding; measurement: normalised enrichment score
Starting sequence: SAMHD1 docking peptide (human); ASKSRVQLFKDDP
K3N: -0.401
Q7A: -0.244
R5K: 0.0168
F9R: 0.0521
F9A: 0.0567
R5H: -0.144
D11F: 0.297
S4I: 0.545
S4A: 0.107
S2H: 0.196
R5C: 0.226
D11L: 0.0271
S4W: 0.0772
K3D: -0.0857
D11V: 0.0594
L8Y: 0.0069
S2A: 0.0748
F9M: 0.0817
F9V: 0.117
S4K: -0.351
Q7C: -0.121
S2W: 0.156
L8W: 0.189
R5Q: -0.048
S4F: 0.14

Sample 3 — target: BIRC6 UBC core domain (UniProt Q9NR09); method: yeast two-hybrid; medium: yeast; notes: mostly zero background; baseline: not given; reading: higher = stronger interaction; measurement: lacZ reporter activity
Chain of UniProt Q9NR09 (whole entry, looked up): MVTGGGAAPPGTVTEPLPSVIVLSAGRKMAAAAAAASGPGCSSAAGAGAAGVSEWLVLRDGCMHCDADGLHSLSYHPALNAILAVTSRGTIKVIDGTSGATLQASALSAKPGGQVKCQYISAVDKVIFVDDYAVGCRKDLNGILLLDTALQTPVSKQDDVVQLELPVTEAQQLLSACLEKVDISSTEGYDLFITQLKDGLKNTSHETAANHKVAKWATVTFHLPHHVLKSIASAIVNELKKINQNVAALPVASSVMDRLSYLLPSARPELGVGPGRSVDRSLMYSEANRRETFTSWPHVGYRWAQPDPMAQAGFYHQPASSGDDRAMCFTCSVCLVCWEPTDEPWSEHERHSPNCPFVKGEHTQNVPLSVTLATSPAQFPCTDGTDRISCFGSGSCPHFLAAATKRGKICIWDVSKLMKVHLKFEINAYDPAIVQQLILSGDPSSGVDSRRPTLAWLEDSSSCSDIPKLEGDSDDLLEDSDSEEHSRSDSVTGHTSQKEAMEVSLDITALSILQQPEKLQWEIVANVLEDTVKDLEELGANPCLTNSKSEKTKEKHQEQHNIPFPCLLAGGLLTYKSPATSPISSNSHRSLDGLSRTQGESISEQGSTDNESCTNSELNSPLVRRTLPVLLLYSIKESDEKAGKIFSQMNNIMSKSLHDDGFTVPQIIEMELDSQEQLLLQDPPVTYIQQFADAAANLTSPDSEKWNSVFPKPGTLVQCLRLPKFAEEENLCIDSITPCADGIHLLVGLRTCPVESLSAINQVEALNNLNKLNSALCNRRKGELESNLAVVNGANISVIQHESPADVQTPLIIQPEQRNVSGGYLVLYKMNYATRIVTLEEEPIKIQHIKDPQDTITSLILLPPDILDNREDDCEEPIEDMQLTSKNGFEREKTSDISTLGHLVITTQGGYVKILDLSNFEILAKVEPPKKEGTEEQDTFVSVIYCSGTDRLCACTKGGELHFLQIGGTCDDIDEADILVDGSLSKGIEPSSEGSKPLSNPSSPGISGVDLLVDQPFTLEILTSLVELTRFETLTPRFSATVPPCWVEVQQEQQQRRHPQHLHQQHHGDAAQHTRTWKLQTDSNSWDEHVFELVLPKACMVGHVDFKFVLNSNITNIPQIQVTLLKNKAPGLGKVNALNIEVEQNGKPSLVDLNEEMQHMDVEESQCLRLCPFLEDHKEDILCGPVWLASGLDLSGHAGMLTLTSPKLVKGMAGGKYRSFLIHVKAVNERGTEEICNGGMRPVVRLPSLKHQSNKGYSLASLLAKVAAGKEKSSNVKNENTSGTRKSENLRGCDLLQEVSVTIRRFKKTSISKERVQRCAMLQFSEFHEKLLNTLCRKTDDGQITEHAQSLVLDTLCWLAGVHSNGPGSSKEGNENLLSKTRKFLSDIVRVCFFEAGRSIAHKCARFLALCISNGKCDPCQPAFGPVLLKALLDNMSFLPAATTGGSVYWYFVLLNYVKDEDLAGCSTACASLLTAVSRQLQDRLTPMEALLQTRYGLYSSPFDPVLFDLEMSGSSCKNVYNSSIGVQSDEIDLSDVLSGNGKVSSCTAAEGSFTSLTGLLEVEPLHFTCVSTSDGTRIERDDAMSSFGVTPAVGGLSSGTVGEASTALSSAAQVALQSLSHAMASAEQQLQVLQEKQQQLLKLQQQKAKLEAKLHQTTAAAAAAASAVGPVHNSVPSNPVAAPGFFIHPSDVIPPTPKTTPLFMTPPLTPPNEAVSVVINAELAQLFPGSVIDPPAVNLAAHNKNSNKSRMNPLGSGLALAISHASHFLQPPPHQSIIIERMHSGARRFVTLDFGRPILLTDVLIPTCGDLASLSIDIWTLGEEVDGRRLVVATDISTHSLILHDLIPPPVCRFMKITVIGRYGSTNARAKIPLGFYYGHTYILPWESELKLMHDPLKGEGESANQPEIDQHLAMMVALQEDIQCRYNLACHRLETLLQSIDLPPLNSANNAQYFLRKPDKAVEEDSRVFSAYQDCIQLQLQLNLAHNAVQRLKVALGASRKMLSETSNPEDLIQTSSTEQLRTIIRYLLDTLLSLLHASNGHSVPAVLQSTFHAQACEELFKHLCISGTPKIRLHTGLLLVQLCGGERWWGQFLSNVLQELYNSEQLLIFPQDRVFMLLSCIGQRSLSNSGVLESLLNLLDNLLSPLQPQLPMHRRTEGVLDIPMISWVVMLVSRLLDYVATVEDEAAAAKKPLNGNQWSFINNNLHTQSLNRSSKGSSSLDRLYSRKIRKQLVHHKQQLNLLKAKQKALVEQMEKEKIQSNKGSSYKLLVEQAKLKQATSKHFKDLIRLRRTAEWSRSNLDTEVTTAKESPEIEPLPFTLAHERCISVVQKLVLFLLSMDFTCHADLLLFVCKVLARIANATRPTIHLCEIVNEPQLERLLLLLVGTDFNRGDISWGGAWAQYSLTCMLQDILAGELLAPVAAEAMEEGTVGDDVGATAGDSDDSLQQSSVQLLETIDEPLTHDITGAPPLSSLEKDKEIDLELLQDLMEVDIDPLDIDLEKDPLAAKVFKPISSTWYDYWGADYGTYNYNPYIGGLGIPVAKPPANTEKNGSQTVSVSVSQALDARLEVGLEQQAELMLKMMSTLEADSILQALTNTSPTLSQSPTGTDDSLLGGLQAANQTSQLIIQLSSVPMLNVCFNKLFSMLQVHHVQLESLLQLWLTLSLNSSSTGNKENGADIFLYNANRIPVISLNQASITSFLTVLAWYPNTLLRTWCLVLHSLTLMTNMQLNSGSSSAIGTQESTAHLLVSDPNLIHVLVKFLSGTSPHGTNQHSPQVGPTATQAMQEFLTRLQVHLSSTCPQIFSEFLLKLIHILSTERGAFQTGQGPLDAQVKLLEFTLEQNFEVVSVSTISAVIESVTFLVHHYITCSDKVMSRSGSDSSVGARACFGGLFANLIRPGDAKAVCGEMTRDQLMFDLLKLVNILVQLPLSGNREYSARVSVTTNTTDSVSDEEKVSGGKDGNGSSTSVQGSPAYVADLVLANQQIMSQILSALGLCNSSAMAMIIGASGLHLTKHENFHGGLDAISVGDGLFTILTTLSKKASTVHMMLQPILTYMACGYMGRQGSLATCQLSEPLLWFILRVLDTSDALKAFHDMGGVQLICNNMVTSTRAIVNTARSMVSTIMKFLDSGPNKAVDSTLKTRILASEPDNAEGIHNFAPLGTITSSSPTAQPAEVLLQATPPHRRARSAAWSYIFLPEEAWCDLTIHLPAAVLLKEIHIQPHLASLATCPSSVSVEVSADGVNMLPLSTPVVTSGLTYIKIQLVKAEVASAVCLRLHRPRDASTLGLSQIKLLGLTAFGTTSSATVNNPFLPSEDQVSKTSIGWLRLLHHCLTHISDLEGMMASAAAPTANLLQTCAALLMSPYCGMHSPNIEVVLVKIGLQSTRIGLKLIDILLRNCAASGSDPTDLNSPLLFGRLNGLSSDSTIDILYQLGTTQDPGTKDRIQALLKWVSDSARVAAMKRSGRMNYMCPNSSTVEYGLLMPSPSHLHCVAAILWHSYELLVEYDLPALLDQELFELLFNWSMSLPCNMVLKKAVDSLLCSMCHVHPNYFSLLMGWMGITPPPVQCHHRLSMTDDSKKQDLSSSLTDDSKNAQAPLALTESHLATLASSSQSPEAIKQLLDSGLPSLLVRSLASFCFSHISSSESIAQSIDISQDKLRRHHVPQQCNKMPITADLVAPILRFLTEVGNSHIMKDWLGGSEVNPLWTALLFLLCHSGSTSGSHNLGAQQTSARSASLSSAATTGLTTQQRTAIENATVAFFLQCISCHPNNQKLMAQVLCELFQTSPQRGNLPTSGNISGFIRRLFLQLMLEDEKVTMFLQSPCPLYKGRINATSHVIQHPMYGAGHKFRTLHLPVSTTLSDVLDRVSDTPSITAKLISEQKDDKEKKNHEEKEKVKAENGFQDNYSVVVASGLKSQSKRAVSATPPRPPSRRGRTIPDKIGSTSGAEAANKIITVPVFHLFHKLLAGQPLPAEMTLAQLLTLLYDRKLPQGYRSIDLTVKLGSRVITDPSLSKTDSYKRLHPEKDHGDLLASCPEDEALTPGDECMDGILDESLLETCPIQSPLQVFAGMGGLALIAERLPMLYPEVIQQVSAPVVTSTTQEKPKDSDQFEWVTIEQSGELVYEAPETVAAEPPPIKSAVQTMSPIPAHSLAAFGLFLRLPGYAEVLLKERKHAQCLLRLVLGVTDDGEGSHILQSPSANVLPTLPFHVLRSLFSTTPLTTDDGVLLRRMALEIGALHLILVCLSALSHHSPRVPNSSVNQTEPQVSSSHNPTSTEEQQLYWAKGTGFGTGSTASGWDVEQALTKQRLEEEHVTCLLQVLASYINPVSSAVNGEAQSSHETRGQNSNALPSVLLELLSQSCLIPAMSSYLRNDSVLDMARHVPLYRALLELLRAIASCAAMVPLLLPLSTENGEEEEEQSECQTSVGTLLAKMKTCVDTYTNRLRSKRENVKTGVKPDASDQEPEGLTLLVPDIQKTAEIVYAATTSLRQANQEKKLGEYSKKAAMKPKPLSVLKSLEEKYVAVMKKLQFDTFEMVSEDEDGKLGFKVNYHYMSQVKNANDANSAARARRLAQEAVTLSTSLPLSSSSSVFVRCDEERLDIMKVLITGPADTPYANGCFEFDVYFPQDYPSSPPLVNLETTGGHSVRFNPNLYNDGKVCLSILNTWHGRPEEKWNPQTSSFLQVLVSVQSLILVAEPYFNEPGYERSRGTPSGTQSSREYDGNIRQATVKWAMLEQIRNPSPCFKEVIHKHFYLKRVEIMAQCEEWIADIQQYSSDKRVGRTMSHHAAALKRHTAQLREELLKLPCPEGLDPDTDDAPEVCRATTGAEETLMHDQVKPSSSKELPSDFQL
B1: RNF31 RING domain (UniProt Q96EP0); chain AFLRRLLAQECAVCGWALPHNRMQALTSCECTICPDCFRQHFTIALKEKHITDMVCPACGRPDLTDDTQLL
B2: RNF2 RING domain (UniProt Q99496); chain SPRSLHSELMCPICLDMLKNTMTTKECLHRFCADCIITALRSGNKECPTCRKKLVSKRSLR
B3: TRIM22 RING domain (UniProt Q8IYM9); chain VKVDIEKEVTCPICLELLTEPLSLDCGHSFCQACITAKIKESVIISRGESSCPVCQTRFQPGNLRP
B4: RNF122 RING domain (UniProt Q9H9V4); chain AKKLQLYGQTCAVCLEDFKGKDELGVLPCQHAFHRKCLVKWLEVRCVCPMCNKPIASPSEAT
B5: RNF187 RING domain (UniProt Q5TA31); chain ALPAGPAEAACALCQRAPREPVRADCGHRFCRACVVRFWAEEDGPFPCPECADDCWQRAVEP
B6: TRIM54 RING domain (UniProt Q9BYV2); chain SMDNLEKQLICPICLEMFSKPVVILPCQHNLCRKCANDVFQASNPLWQSRGSTTVSSGGRFRCPSCRHEVVLDRHGV
B7: MYCBP2 RING domain (UniProt O75592); chain TSLKQDADDMCMICFTEALSAAPAIQLDCSHIFHLQCCRRVLENRWLGPRITFGFISCPICKNKINHIVLKD
B1 (RNF31 RING domain): 0
B2 (RNF2 RING domain): 0
B3 (TRIM22 RING domain): 0
B4 (RNF122 RING domain): 0
FVKTVEDKYKCEKCHLVLCSPKQTECGHRFCESCMAALLSSSSPKCTACQESIVKDKVF (TRAF3 RING domain (UniProt Q13114)): 0
MNDVLENELQCIICSEYFIEAVTLNCAHSFCSYCINEWMKRKIECPICRKDIKSKTYSL (RNF8 RING domain (UniProt O76064)): 0
B5 (RNF187 RING domain): 0
B6 (TRIM54 RING domain): 0
B7 (MYCBP2 RING domain): 0
QVQSRTKIEECVVCSDKKAAVLFQPCGHMCACENCANLMKKCVQCRAVVERRVPFI (MIB1 RING domain (UniProt Q86YT6)): 0
YPEEVDDDLICHICLQALLDPLDTPCGHTYCTLCLTNFLVEKDFCPMDRKPLVLQHCKK (LNX1 RING domain (UniProt Q8TBB1)): 0
YCEMGSTFQLCKICAENDKDVKIEPCGHLMCTSCLTAWQESDGQGCPFCRCEIKGTEPII (CBLB RING domain (UniProt Q13191)): 0
AEADPLGRFTCPVCLEVYEKPVQVPCGHVFCSACLQECLKPKKPVCGVCRSALAPGVRAV (RNF114 RING domain (UniProt Q9Y508)): 0
LGTKLEAKYLCSACRNVLRRPFQAQCGHRYCSFCLASILSSGPQNCAACVHEGIYEEGIS (TRAF2 RING domain (UniProt Q12933)): 0

Sample 4 — method: protein-binding microarray; molecule type: double-stranded DNA, one strand shown; medium: in vitro; concentration: 250 nM; notes: 60-bp whole probe; added: salmon DNA 0.4 mg/ml; baseline: random background probes; reading: higher = stronger binding; measurement: log fluorescence; constant ends, left off below: GCCTAGCAC … GTCTTGATTCGCTTGACGCTGCTG
Target: Interferon regulatory factor 5, full length, phosphomimetic (IRF5, Homo sapiens, UniProt Q13568-2, residues 1-514, K96S/S451D/S453D/S456D/S462D)
CTACTTCTCTTTTTGCTTTCGTGCTAG: 3.14 z-score
GAGGCTTTTTTTTTTTTTTTGTGCTAG: 0.448 z-score
CACGGTTCCCTTTTCCTGACGTGCTAG: 0.126 z-score
TTAGGTATCGCGTATCGGTTAGTGCTA: 3.66 z-score
TTATGACTGGGTATCGGTTAGTGCTAG: 4.44 z-score
TTAGGCTTCGACTTTCGGTTAGTGCTA: 9.05 z-score
TTAGGGTTCCTACTGCTTTAGTGCTAG: -0.238 z-score
GACGATAACAGTCTCGAGACGTGCTAG: 0.713 z-score
GACGGTTCCCTTTGCCTGACGTGCTAG: 0.0874 z-score
GACGAACTGGGGTATAGAGACGTGCTA: -0.34 z-score
CGTAAGCAAAAATGATTGGTGTGCTAG: 0.252 z-score
GTGTATATGACAATGATGTTGTGCTAG: 0.269 z-score
TTTCTTTTTGCACTCTCTACGTGCTAG: 5.52 z-score
GACGGTTTGGGGTATCGGGACGTGCTA: 0.222 z-score
GACTATTTCGGGACTGGAGACGTGCTA: 1.93 z-score
GACGATTTCAGTTCCGAGGCGTGCTAG: 1.16 z-score
GAGGGTCTCCTACTGCTGACGTGCTAG: -0.53 z-score
TCACACCAGAGGGCGCTGTGGTGCTAG: -0.584 z-score
TTACATCTCAGTCTCGATTAGTGCTAG: 1.49 z-score
AAGCAAAAATGATTGGTTGAGTGCTAG: 0.142 z-score
TTAGATATCGGGTTTCGATCAGTGCTA: 7.22 z-score

Sample 5 — method: DHFR PCA, deep sequencing; medium: yeast; added: (+)-ABA 200 µM; baseline: wild-type fitted maximum; reading: higher = stronger binding; measurement: relative binding score
Target: ABI1, truncated, D143A, DHFR fusion (Arabidopsis thaliana)
Notes: methotrexate growth selection, single substitutions
Starting sequence: PYL1, truncated, DHFR fusion (Arabidopsis thaliana); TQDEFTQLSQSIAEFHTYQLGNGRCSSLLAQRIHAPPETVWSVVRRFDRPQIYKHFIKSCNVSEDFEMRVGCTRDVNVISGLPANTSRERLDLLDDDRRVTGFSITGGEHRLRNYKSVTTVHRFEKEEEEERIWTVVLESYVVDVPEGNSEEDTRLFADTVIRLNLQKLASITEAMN
S104E: 51.8%
R49L: 84.9%
Q10W: 84.2%
E67P: 99.9%
A175V: 98.6%
M68Q: 95.7%
H34I: 88.6%
T173R: 8.73%
E129M: 96.9%
D48T: 47.8%
T17I: 77.5%
K54Y: 10%
T101M: 111%
I33T: 39.9%
E127S: 107%
S104G: 34.4%
L94K: 20.1%

A few entries again (sample 4):
TTATGACTGGGTATCGGTTAGTGCTAG: 4.44 z-score
TTAGGCTTCGACTTTCGGTTAGTGCTA: 9.05 z-score
TTAGGGTTCCTACTGCTTTAGTGCTAG: -0.238 z-score
GACGATAACAGTCTCGAGACGTGCTAG: 0.713 z-score
GACGGTTCCCTTTGCCTGACGTGCTAG: 0.0874 z-score
GACGAACTGGGGTATAGAGACGTGCTA: -0.34 z-score
CGTAAGCAAAAATGATTGGTGTGCTAG: 0.252 z-score
GTGTATATGACAATGATGTTGTGCTAG: 0.269 z-score
TTTCTTTTTGCACTCTCTACGTGCTAG: 5.52 z-score
GACGGTTTGGGGTATCGGGACGTGCTA: 0.222 z-score
GACTATTTCGGGACTGGAGACGTGCTA: 1.93 z-score
